Experimental data gathered from unrelated publications.
Each line is one published result; not all experiments were run side by side. Several values in a cell are separate wells, animals, samples, runs or records. ± gives the spread as reported. Values after ≈ are worked out from the molar mass of the structure shown.

CO[C@H]1C[C@@H]2CC[C@@H](C)[C@@](O)(O2)C(=O)C(=O)N2CCCC[C@H]2C(=O)O[C@H]([C@H](C)C[C@@H]2CC[C@@H](OC(=O)NCCOCCOCCOCCOCCOCCOCCOCCOCCC(=O)N3CCc4cc(Cn5nc(-c6ccc7oc(N)nc7c6)c6c(N)ncnc65)ccc4C3)[C@H](OC)C2)C[C@@H](O)[C@H](C)/C=C(\C)[C@@H](O)[C@@H](OC)C(=O)[C@H](C)C[C@H](C)/C=C/C=C/C=C/1C gave an AUClast ratio of 1.9 (human, plasma; intravenous, 6 mg, cycle 1; relative to: day 15 over day 1).
Oc1ccc(/C=C/c2cc(O)cc(O)c2)cc1 has a lactate dehydrogenase of 1140 IU/L and 1490 IU/L and 942 IU/L (rat, azoxymethane-injected, blood at sacrifice; 10 mg/kg).
O=C1NCCc2nc(OCc3cccc(F)c3)ccc21: “Irwin test score” 0 (measured: Convulsions; Sprague-Dawley rat, male; oral, 100 mg/kg, 1 h, score 0 none to 2 full; direction not given).
For O=C(N[C@H](Cc1c[nH]c2ccccc12)C(=O)Nc1ccncc1)c1ccc(-c2ccc(F)c(Cl)c2)cc1F, the concentration was 1180 nM (Swiss Webster mouse, female, plasma; oral, 50 mg/kg, 2 h, 20% HPβCD vehicle).
For NC(=O)N1c2ccccc2CC(O)c2ccccc21 (stereo not drawn), the clearance was 2.85 L/h (population PK modelling; human patients, plasma; weight-scaled, shared estimated exponent).
CCCC[C@H]1CC[C@H](c2ccc(C#N)cc2)CC1 — result for “median placental accumulation”: 5.66 ng/g (Sprague-Dawley rat, female, placenta; 1000 ng/mL in perfusate, 50 (unit not given), middle dose, mixture of 21 LCMs).
C[C@H]1O[C@@H](O[C@H]2[C@@H](O)C[C@H](O[C@H]3[C@@H](O)C[C@H](O[C@H]4CC[C@@]5(C)[C@H](CC[C@@H]6[C@@H]5C[C@@H](O)[C@]5(C)[C@@H](C7=CC(=O)OC7)CC[C@]65O)C4)O[C@@H]3C)O[C@@H]2C)C[C@H](O)[C@@H]1O — result for “participants with TEAE”: 0% (measured: vessel puncture site pain; human; oral, 0.25 mg).
CNC(=O)c1ccc(-c2cnc3ncc(Cc4ccc5ncccc5c4)n3n2)cc1F gave an AUC(0-t) of 5680 ng·h/mL (human mild hepatic impairment; oral, 200 mg single dose, covariate-adjusted geometric mean).
For CCc1cc(C(=O)NC)c2nccc(N3CCc4c(cc(Cn5ccnc5)cc4-c4cn(C)nc4C(F)(F)F)C3=O)c2c1, “change in clinical chemistry or haematology parameter” read 5.88% (measured: Baso; Sprague Dawley rat; oral, 50 mg/kg once daily, 7 days; relative to: vehicle).
The thermodynamic solubility of Cc1c(Cl)cccc1Nc1ccccc1C(=O)O is reported as 50.3 ± 1.42 mg/g (shake-flask; Cremophor ELP; 37 °C, water up to 0.5% w/w).
CN(CCCN1CCN(C(=O)CN2CCN(CC(=O)[O-])CCN(CC(=O)[O-])CCN(CC(=O)[O-])CC2)CC1)c1ccc2nccc(C(=O)NCC(=O)N3CC(F)(F)C[C@H]3C#N)c2c1.[68Ga+3] has an uptake of 1.1 ± 0.3 %IA/g (mouse HT-1080-hFAP and HT-1080 xenografts, femur; intravenous, 500 pmol, 1 h).
With N#Cc1ccc2c(c1)[C@H]1CCCN(C(=O)c3ccc4[nH]cnc4c3)[C@H]1C2 the androstenedione level was 9.5 nmol/L (human, male; 20 mg, end of trial).
O=C(Nc1ccc(OC(F)(F)Cl)cc1)c1cnc(N2CC[C@@H](O)C2)c(-c2ccn[nH]2)c1 — result for “grade ≥3 event rate”: 0.1% (per treatment cycle, measured: hemoglobin decrease; human patients; oral, dose not given, 28 day cycle).
CCN1/C(=C/C(C)=O)Sc2ccc(F)cc21 has a heart rate of 94 ± 24 beats/min (cynomolgus monkey; oral, 30 mg/kg, 4 h post-dose).
The AUClast of CC(C)[C@@H](CN1CC[C@@](C)(c2cccc(O)c2)[C@@H](C)C1)NC(=O)[C@H]1Cc2ccc(O)cc2CN1 is reported as 4410 ng·h/mL (Sprague-Dawley rat, plasma; intraperitoneal, 10 mg/kg).
N#Cc1ccccc1-c1nc(N2CCC(c3ccccn3)C2)c2ccccc2n1 (stereo not drawn) gave a kinetic solubility of 1 µg/mL (≈ 2.65 µM) (Japanese Pharmacopoeia disintegration test solution 2; pH 6.8).
Cc1cccc(CNC(=O)c2cn(CCNC(=O)c3ccccc3Sc3c([N+](=O)[O-])ncn3C)c3cc4c(cc3c2=O)OC(F)(F)O4)n1 gave an AUC(0-inf) of 72 ± 6.69 ng·h/mL (Sprague-Dawley rat, male, whole blood; intravenous, 5 mg/kg of parent compound).
The thermodynamic solubility of C[C@@H](O)[C@H](NC(=O)c1ccc(-c2ccccc2)cc1)C(=O)NO is reported as 302 µM (≈ 95.1 µg/mL) (aqueous buffer; pH 7.4).
Under “intercompartmental clearance Q/F”, CN1CC[C@@H](NC(=O)Nc2ccc(C#N)cc2)C[C@@H]1c1nc2ccccc2[nH]1 is recorded as 2.13 L/h (human cancer patients, plasma; oral, population PK base model).
For Cc1c(C(=O)O)ccc2c3n(nc12)[C@@H]1[C@H](C3)N(CC2CC2)[C@@]2(C(=O)Nc3cc(Cl)ccc32)[C@H]1c1cccc(Cl)c1F, “abdominal pain incidence” read 1.9% (human patients phase Ia; oral, dose not given, grade ≥3, all patients).
O=C(Nc1nc2cccc(-c3ccc(CN4CCS(=O)(=O)CC4)cc3)n2n1)C1CC1: “treatment-emergent adverse events” 0% (measured: non-infective cystitis; rheumatoid arthritis patients; oral, 75 mg once daily, 4 weeks, any relatedness).

A few entries again:
The thermodynamic solubility of C[C@@H](O)[C@H](NC(=O)c1ccc(-c2ccccc2)cc1)C(=O)NO is reported as 302 µM (≈ 95.1 µg/mL) (aqueous buffer; pH 7.4).
Under “intercompartmental clearance Q/F”, CN1CC[C@@H](NC(=O)Nc2ccc(C#N)cc2)C[C@@H]1c1nc2ccccc2[nH]1 is recorded as 2.13 L/h (human cancer patients, plasma; oral, population PK base model).
For Cc1c(C(=O)O)ccc2c3n(nc12)[C@@H]1[C@H](C3)N(CC2CC2)[C@@]2(C(=O)Nc3cc(Cl)ccc32)[C@H]1c1cccc(Cl)c1F, “abdominal pain incidence” read 1.9% (human patients phase Ia; oral, dose not given, grade ≥3, all patients).
